Experimental data from different studies.
Lines come from different studies, so protocols differ.
GLP1R: Glucagon-like peptide 1 receptor (GLP1R, Homo sapiens, UniProt P43220)
DCN1-like protein 1: DCN1-like protein 1 (Homo sapiens, UniProt Q96GG9)
UniProt Q96GG9, sequence (whole entry, looked up): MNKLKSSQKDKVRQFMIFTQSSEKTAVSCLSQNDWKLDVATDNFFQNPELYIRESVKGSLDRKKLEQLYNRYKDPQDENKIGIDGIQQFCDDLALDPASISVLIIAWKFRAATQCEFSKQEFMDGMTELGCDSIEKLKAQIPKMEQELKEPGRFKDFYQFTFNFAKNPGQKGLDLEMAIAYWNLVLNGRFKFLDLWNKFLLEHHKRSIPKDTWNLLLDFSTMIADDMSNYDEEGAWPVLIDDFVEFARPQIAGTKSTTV
UniProt P0DW57, sequence (whole entry, looked up): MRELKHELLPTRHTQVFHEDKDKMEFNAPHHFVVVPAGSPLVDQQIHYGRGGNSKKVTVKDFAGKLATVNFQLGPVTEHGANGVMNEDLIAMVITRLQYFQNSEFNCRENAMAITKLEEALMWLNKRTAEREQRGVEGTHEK
UniProt P21730, sequence (whole entry, looked up): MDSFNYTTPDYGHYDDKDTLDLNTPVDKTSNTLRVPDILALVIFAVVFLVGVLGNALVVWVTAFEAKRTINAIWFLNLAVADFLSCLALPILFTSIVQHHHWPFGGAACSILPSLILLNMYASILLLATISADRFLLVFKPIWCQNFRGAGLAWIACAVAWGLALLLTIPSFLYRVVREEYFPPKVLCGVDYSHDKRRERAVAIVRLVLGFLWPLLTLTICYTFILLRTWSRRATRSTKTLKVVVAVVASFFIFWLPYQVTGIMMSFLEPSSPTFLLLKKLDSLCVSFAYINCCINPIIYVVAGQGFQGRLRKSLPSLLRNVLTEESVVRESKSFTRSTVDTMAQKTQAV
UniProt O14980, sequence (whole entry, looked up): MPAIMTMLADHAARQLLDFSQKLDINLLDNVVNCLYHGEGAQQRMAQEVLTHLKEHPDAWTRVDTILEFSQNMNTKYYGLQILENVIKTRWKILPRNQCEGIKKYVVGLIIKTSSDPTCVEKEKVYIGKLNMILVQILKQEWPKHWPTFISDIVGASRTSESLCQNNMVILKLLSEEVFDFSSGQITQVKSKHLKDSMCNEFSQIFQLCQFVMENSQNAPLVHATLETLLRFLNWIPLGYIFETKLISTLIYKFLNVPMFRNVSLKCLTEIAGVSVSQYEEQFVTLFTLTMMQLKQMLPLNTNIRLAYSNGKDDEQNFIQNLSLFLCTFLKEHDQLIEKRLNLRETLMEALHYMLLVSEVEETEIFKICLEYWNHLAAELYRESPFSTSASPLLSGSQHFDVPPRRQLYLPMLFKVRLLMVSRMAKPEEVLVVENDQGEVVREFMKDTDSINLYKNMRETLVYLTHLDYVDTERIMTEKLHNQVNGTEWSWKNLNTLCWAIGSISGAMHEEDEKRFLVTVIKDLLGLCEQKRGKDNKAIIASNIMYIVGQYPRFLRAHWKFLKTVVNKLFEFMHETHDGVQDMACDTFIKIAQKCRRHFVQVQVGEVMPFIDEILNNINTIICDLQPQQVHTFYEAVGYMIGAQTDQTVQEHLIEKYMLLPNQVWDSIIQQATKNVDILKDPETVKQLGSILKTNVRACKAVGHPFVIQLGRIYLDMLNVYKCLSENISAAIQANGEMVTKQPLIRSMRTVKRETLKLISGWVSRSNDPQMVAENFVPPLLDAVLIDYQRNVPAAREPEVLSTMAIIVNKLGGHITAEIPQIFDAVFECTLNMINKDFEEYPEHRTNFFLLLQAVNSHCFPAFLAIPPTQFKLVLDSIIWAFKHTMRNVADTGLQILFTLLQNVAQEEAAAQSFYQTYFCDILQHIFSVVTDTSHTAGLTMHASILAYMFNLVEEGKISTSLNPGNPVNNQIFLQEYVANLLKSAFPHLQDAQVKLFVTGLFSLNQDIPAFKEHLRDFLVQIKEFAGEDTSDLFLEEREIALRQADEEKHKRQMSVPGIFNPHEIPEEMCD

Structure (SMILES) = CC[C@H](C)[C@H](NC(=O)[C@H](Cc1ccccc1)NC(=O)[C@H](CCC(=O)O)NC(=O)[C@H](CCCNC(=N)N)NC(=O)[C@H](C)NC(=O)[C@H](C)NC(=O)[C@H](CCC(N)=O)NC(=O)[C@H](CCC(=O)O)NC(=O)[C@H](CCC(=O)O)NC(=O)[C@H](CC(C)C)NC(=O)[C@H](Cc1ccc(O)cc1)NC(=O)[C@H](CO)NC(=O)[C@H](CO)NC(=O)[C@@H](NC(=O)[C@H](CC(=O)O)NC(=O)[C@H](CO)NC(=O)[C@@H](NC(=O)[C@H](Cc1ccccc1)NC(=O)[C@@H](NC(=O)CNC(=O)[C@H](CCC(=O)O)NC(=O)[C@H](C)NC(=O)CCc1cnc[nH]1)[C@@H](C)O)[C@@H](C)O)C(C)C)C(=O)N[C@@H](C)C(=O)N[C@@H](Cc1c[nH]c2ccccc12)C(=O)N[C@@H](CC(C)C)C(=O)N[C@H](C(=O)N[C@@H](CCCCNc1c(NCCCCCN(O)C(=O)CCC(=O)NCCCCCN(O)C(=O)CCC(=O)NCCCCCN(O)C(C)=O)c(=O)c1=O)C(=O)NCC(=O)N[C@@H](CCCNC(=N)N)C(=O)N[C@@H](CCCCNc1c(NCCCCCN(O)C(=O)CCC(=O)NCCCCCN(O)C(=O)CCC(=O)NCCCCCN(O)C(C)=O)c(=O)c1=O)C(=O)NCC(=O)NCC(=O)N[C@@H](CO)C(=O)N[C@@H](CCCCNC(=O)COCCOCCNC(=O)COCCOCCNC(=O)CC[C@H](NC(=O)CCCCCCCCCCCCCCCCC(=O)O)C(=O)O)C(=O)O)C(C)C; tested on = GLP1R; test = cAMP reporter gene, agonist, CRE luciferase; test system = BHK; conditions = without Zr, 1% HSA; measurement = EC50; value = 0.31 nM
Structure (SMILES) = C[C@H]1CN(c2n[nH]c3nc(N[C@H]4CC[C@H](NS(=O)(=O)CCC(F)(F)F)CC4)ncc23)CCO1; tested on = Exportin-1 (XPO1, Homo sapiens, UniProt O14980); test = biochemical; measurement = IC50; value = ≥ 20000 nM
Structure (SMILES) = CC[C@H](C)[C@H](NC(=O)[C@H](Cc1ccccc1)NC(=O)[C@H](CCC(=O)O)NC(=O)[C@H](CCCNC(=N)N)NC(=O)[C@H](C)NC(=O)[C@H](C)NC(=O)[C@H](CCC(N)=O)NC(=O)[C@H](CCC(=O)O)NC(=O)[C@H](CCC(=O)O)NC(=O)[C@H](CC(C)C)NC(=O)[C@H](Cc1ccc(O)cc1)NC(=O)[C@H](CO)NC(=O)[C@H](CO)NC(=O)[C@@H](NC(=O)[C@H](CC(=O)O)NC(=O)[C@H](CO)NC(=O)[C@@H](NC(=O)[C@H](Cc1ccccc1)NC(=O)[C@@H](NC(=O)CNC(=O)[C@H](CCC(=O)O)NC(=O)[C@H](C)NC(=O)CCc1c[nH]cn1)[C@@H](C)O)[C@@H](C)O)C(C)C)C(=O)N[C@@H](C)C(=O)N[C@@H](Cc1c[nH]c2ccccc12)C(=O)N[C@@H](CC(C)C)C(=O)N[C@H](C(=O)N[C@@H](CCCNC(=N)N)C(=O)NCC(=O)N[C@@H](CCCNC(=N)N)C(=O)N[C@@H](CCCCNC(=O)COCCOCCNC(=O)COCCOCCNC(=O)CC[C@H](NC(=O)CCCCCCCCCCCCCCCCC(=O)O)C(=O)O)C(=O)NCC(=O)NCC(=O)N[C@@H](CO)C(=O)N[C@@H](CCCCNc1c(NCCCCCN(O)C(=O)CCC(=O)NCCCCCN(O)C(=O)CCC(=O)NCCCCCN(O)C(C)=O)c(=O)c1=O)C(=O)O)C(C)C [zirconium-89 labelled]; test = ex vivo gamma counting; test system = rat, femur; conditions = subcutaneous, 3 nmol/kg, 168 h, with: [89Zr]-labelled peptide; measurement = tissue uptake; value = 0.14 %ID/g
Structure (SMILES) = C[C@@H](O)[C@@H](CO)NC(=O)[C@@H](CCCNC(=N)N)NC(=O)[C@@H]1CCCN1C(=O)[C@@H]1CSSC[C@H](NC(=O)[C@H](Cc2ccccc2)NC(=O)CN2CCN(CC(=O)O)CCN(CC(=O)O)CCN(CC(=O)O)CC2)C(=O)N[C@@H](Cc2ccc(O)cc2)C(=O)N[C@@H](Cc2ccccc2)C(=O)N[C@@H](CCC(N)=O)C(=O)N[C@@H](CC(N)=O)C(=O)N1 [gallium-68 labelled]; test system = Wistar rat, healthy, Parotid gland; conditions = intravenous, 8 MBq, 60 min; measurement = tissue uptake; value = 0.18 %ID/g
Structure (SMILES) = Cc1cccc(-n2nc(C)c3c2NC(=O)[C@@H](NC(=O)c2cccc(C(F)(F)F)c2)[C@H]3c2ccc(F)cc2)c1; tested on = DCN1-like protein 1; measurement = IC50; value = > 15000 nM
Structure (SMILES) = CC[C@H](C)[C@@H]1NC(=O)[C@@H]2CCCN2C(=O)[C@H](CC(C)C)NC(=O)[C@H](CC(C)C)NC(=O)CNC(=O)[C@@H](NC(=O)[C@@H](NC(=O)[C@H](CC(=O)O)NC(=O)CNC(=O)[C@@H](NC(=O)[C@H](C)NC(=O)CNC(=O)[C@H](CCCCN)NC(=O)[C@H](CC(C)C)NC(=O)[C@H](CC(C)C)NC(=O)[C@H](CCCCN)NC(=O)CNC(=O)[C@@H](NC(=O)[C@@H](N)CC(C)C)C(C)C)C(C)C)C(C)C)CSSC[C@@H](C(=O)O)NC1=O; test = RNA-seq, refers to: Tnfsf11; test system = mouse, traumatic brain injury model, frontal cortex and hippocampus; conditions = dose not given; how to read = reference: TBI alone; measurement = log2 fold change; value = -3.9
Structure (SMILES) = CC[C@H](C)[C@H](NC(=O)[C@H](Cc1ccccc1)NC(=O)[C@H](CCC(=O)O)NC(=O)[C@H](CCCNC(=N)N)NC(=O)[C@H](C)NC(=O)[C@H](C)NC(=O)[C@H](CCC(N)=O)NC(=O)[C@H](CCC(=O)O)NC(=O)[C@H](CCC(=O)O)NC(=O)[C@H](CC(C)C)NC(=O)[C@H](Cc1ccc(O)cc1)NC(=O)[C@H](CO)NC(=O)[C@H](CO)NC(=O)[C@@H](NC(=O)[C@H](CC(=O)O)NC(=O)[C@H](CO)NC(=O)[C@@H](NC(=O)[C@H](Cc1ccccc1)NC(=O)[C@@H](NC(=O)CNC(=O)[C@H](CCC(=O)O)NC(=O)[C@H](C)NC(=O)CCc1cnc[nH]1)[C@@H](C)O)[C@@H](C)O)C(C)C)C(=O)N[C@@H](C)C(=O)N[C@@H](Cc1c[nH]c2ccccc12)C(=O)N[C@@H](CC(C)C)C(=O)N[C@H](C(=O)N[C@@H](CCCCNC(=O)COCCOCCNC(=O)COCCOCCNC(=O)CC[C@H](NC(=O)CCCCCCCCCCCCCCCCC(=O)O)C(=O)O)C(=O)NCC(=O)N[C@@H](CCCNC(=N)N)C(=O)N[C@@H](CCCCNc1c(NCCCCCN(O)C(=O)CCC(=O)NCCCCCN(O)C(=O)CCC(=O)NCCCCCN(O)C(C)=O)c(=O)c1=O)C(=O)NCC(=O)NCC(=O)N[C@@H](CO)C(=O)N[C@@H](CCCCNc1c(NCCCCCN(O)C(=O)CCC(=O)NCCCCCN(O)C(=O)CCC(=O)NCCCCCN(O)C(C)=O)c(=O)c1=O)C(=O)NCC(=O)NCC(=O)N[C@@H](CO)C(=O)N[C@@H](CCCCNc1c(NCCCCCN(O)C(=O)CCC(=O)NCCCCCN(O)C(=O)CCC(=O)NCCCCCN(O)C(C)=O)c(=O)c1=O)C(=O)O)C(C)C; tested on = GLP1R; test = cAMP reporter gene, agonist, CRE luciferase; test system = BHK; conditions = with Zr, 0% HSA; measurement = EC50; value = 0.0056 nM
Structure (SMILES) = COc1cc(Nc2ncc(F)c(Nc3ccc4c(n3)NC(=O)C(C)(C)O4)n2)cc(OC)c1OC; tested on = C5a anaphylatoxin chemotactic receptor 1 (C5AR1, Homo sapiens, UniProt P21730); measurement = IC50; value = > 10000 nM
Structure (SMILES) = CO[C@H]1C[C@@H]2CC[C@@H](C)[C@@](O)(O2)C(=O)C(=O)N2CCCC[C@H]2C(=O)O[C@H]([C@H](C)C[C@@H]2CC[C@@H](OC(=O)NCCOCCOCCOCCOCCOCCOCCOCCOCCC(=O)N3CCc4cc(Cn5nc(-c6ccc7oc(N)nc7c6)c6c(N)ncnc65)ccc4C3)[C@H](OC)C2)C[C@@H](O)[C@H](C)/C=C(\C)[C@@H](O)[C@@H](OC)C(=O)[C@H](C)C[C@H](C)/C=C/C=C/C=C/1C; test system = patients with advanced solid tumours; conditions = intravenous, dose not given, grade ≥3; measurement = incidence of Nausea TRAE; value = 1.8%
Structure (SMILES) = Cc1nn(-c2ccccc2)c2c1[C@H](c1cscn1)[C@H](NC(=O)c1cccc(C(F)(F)F)c1)C(=O)N2; tested on = DCN1-like protein 1; measurement = IC50; value = > 15000 nM
Structure (SMILES) = COc1cc2c(Oc3ccc4[nH]c(C)cc4c3F)ccnc2cc1OCC1(N)CC1; test = refers to: grade 1 or 2 intestinal obstruction; test system = paediatric high-risk refractory sarcoma; conditions = whole group; measurement = incidence of adverse event; value = 0%
Structure (SMILES) = CC(=O)NCN1C(=O)[C@@H](NC(=O)c2cccc(C(F)(F)F)c2)[C@@H](c2ccc(F)cc2)c2c(C)nn(-c3ccccc3)c21; tested on = DCN1-like protein 1; measurement = IC50; value = > 15000 nM
Structure (SMILES) = CC[C@H](C)[C@H](NC(=O)[C@H](Cc1ccccc1)NC(=O)[C@H](CCC(=O)O)NC(=O)[C@H](CCCNC(=N)N)NC(=O)[C@H](C)NC(=O)[C@H](C)NC(=O)[C@H](CCC(N)=O)NC(=O)[C@H](CCCCNc1c(NCCCCCN(O)C(=O)CCC(=O)NCCCCCN(O)C(=O)CCC(=O)NCCCCCN(O)C(C)=O)c(=O)c1=O)NC(=O)[C@H](CCC(=O)O)NC(=O)[C@H](CC(C)C)NC(=O)[C@H](Cc1ccc(O)cc1)NC(=O)[C@H](CO)NC(=O)[C@H](CO)NC(=O)[C@@H](NC(=O)[C@H](CC(=O)O)NC(=O)[C@H](CO)NC(=O)[C@@H](NC(=O)[C@H](Cc1ccccc1)NC(=O)[C@@H](NC(=O)CNC(=O)[C@H](CCC(=O)O)NC(=O)[C@H](C)NC(=O)CCc1cnc[nH]1)[C@@H](C)O)[C@@H](C)O)C(C)C)C(=O)N[C@@H](C)C(=O)N[C@@H](Cc1c[nH]c2ccccc12)C(=O)N[C@@H](CC(C)C)C(=O)N[C@H](C(=O)N[C@@H](CCCNC(=N)N)C(=O)NCC(=O)N[C@@H](CCCNC(=N)N)C(=O)N[C@@H](CCCCNC(=O)COCCOCCNC(=O)COCCOCCNC(=O)CC[C@H](NC(=O)CCCCCCCCCCCCCCCCC(=O)O)C(=O)O)C(=O)NCC(=O)NCC(=O)N[C@@H](CO)C(=O)N[C@@H](CCCCNc1c(NCCCCCN(O)C(=O)CCC(=O)NCCCCCN(O)C(=O)CCC(=O)NCCCCCN(O)C(C)=O)c(=O)c1=O)C(=O)O)C(C)C; tested on = GLP1R; test = cAMP reporter gene, agonist, CRE luciferase; test system = BHK; conditions = without Zr, 0% HSA; measurement = EC50; value = 0.019 nM
Structure (SMILES) = COCCn1c2nc(=O)n(-c3ccccc3)c(=O)c-2nc2ccccc21; tested on = Genome polyprotein, NS5 methyltransferase domain (pol, Dengue virus type 3, UniProt Q6YMS4); measurement = Kd; value = 3200 nM
Structure (SMILES) = Nc1ncnc2c1ncn2[C@@H]1O[C@@H]2COP(=O)(O)OP(=O)(O)OC[C@H]3O[C@@H](O[C@H]2[C@H]1O)[C@H](O)[C@@H]3O; tested on = Thoeris anti-defense 1 (tad1, Bacillus phage SBSphiJ7, UniProt P0DW57); test = binding; measurement = Kd; value = 210 nM

Excerpt of the above:
Structure (SMILES) = CO[C@H]1C[C@@H]2CC[C@@H](C)[C@@](O)(O2)C(=O)C(=O)N2CCCC[C@H]2C(=O)O[C@H]([C@H](C)C[C@@H]2CC[C@@H](OC(=O)NCCOCCOCCOCCOCCOCCOCCOCCOCCC(=O)N3CCc4cc(Cn5nc(-c6ccc7oc(N)nc7c6)c6c(N)ncnc65)ccc4C3)[C@H](OC)C2)C[C@@H](O)[C@H](C)/C=C(\C)[C@@H](O)[C@@H](OC)C(=O)[C@H](C)C[C@H](C)/C=C/C=C/C=C/1C; test system = patients with advanced solid tumours; conditions = intravenous, dose not given, grade ≥3; measurement = incidence of Nausea TRAE; value = 1.8%
Structure (SMILES) = Cc1nn(-c2ccccc2)c2c1[C@H](c1cscn1)[C@H](NC(=O)c1cccc(C(F)(F)F)c1)C(=O)N2; tested on = DCN1-like protein 1; measurement = IC50; value = > 15000 nM
